Assay results of several laboratories.
Compare with care: the assays were run in different laboratories.
Target: Serine/threonine-protein kinase PRP4 homolog (PRPF4B, Homo sapiens, UniProt Q13523)

Structure (SMILES) | test | test system | setting | scale | quantity | result
CC(C)=CC1OC(C)(C)C2C=C3C(=O)C(Cl)=CC(O)C3C3C(O)C4OC4C(=O)C132 (centres unmarked) | cell-free assay, competition with immobilised ligand | – | 10 µM | – | remaining binding | 100%
COc1c(Cl)cccc1Nc1c(-c2ccncc2C#C[C@@]2(C)CCCN2C(=O)/C=C/CN(C)C)[nH]c2c1C(=O)NCC2 | cell-free assay, competition with immobilised ligand | – | 3 µM | – | remaining binding | 100%
COc1cc(Nc2nc(C)cc(-c3cnn4nc(OC)ccc34)n2)cc(C(F)(F)F)c1 | inhibitor | – | 1 µM, PRP4 | relative to: control | remaining activity | 100%
C=CC(=O)Nc1cc(-c2nn(C3CCN(CCNC(=O)[C@H](C)CCC45CC6CC(CC(C6)C4)C5)CC3)c3ncnc(N)c23)ccc1Oc1ccccc1 | inhibitor, KiNativ profiling | biochemical | 2 µM | – | inhibition | 7%
Nc1ncc2c(n1)-c1c([nH]c3ccc(C4=CCOCC4)cc13)CCC2 | binding, competition with immobilised ligand | – | 1 µM | – | remaining binding | 91%
CNC1C[S+]2CC[S+]3CC[S+](C1)[Ru-4]321([N]=C=S)[n]2c3ccc(OC)cc3c3c4c(c5cc(F)c[n+]1c5c32)C(=O)NC4=O (centres unmarked) | KinomeScan | – | 0.1 µM | relative to: untreated | remaining binding | 100%
CN1CC[C@@H](COc2cnc(C#N)cc2-c2ccn3nc(NC(=O)C4CC4)cc3c2)C1 | enzyme activity, inhibitor | – | 1 µM | – | inhibition | 1%
CNC(=O)C1CCN(c2cc(C)c(F)cc2NC(=O)c2ccc(-c3cc(O)ccc3C)c(C)c2)CC1 | binding, competition with immobilised ligand | – | 1 µM | – | remaining binding | 94%
C=CC(=O)N1CCCC(n2c(=O)c3ncccc3n(Cc3ccc(Oc4ccccc4)cc3)c2=O)C1 (centres unmarked) | cell-free assay, competition with immobilised ligand | – | 1 µM | – | remaining binding | 100%
C=CC(=O)N1CCc2ccc(-n3c(=O)ccc4cnc5ccc(-c6cnn(C)c6)cc5c43)cc21 | KINOMEscan | – | 1 µM | relative to: DMSO control | remaining binding | 79%
Cc1ccc(-c2c(/C=C(\C#N)C(=O)NC(C)C)n(CCCO)c3ncnc(N)c23)cc1 | cell-free assay, competition with immobilised ligand | – | 1 µM | – | remaining binding | 100%
COc1cc(Nc2nccc(-c3cnn4nc(OC)ccc34)n2)cc(C(F)(F)F)c1 | binding, competition with immobilised ligand | – | 1 µM | – | remaining binding | 79%
O=C(Cc1ccc(OCc2ccccc2)cc1)NC1(C(=O)O)CCN(C(=O)c2ccc(-c3cccc(Cl)c3)cc2)CC1 | enzyme activity, inhibitor | – | 10 µM | – | activity vs control | 93%
Cc1cnc2nc1Nc1cccc(c1)COC/C=C/COCc1cc(ccc1OCCN1CCOCC1)N2 | binding, competition with immobilised ligand | – | 0.1 µM | – | remaining binding | 100%

A few entries again:
Structure (SMILES) | test | test system | setting | scale | quantity | result
C=CC(=O)N1CCCC(n2c(=O)c3ncccc3n(Cc3ccc(Oc4ccccc4)cc3)c2=O)C1 (centres unmarked) | cell-free assay, competition with immobilised ligand | – | 1 µM | – | remaining binding | 100%
